{"data": "Results pooled from the literature", "note": "Numbered parts are unrelated; each lists some results of a single study."}
{"data": "Series 1", "target": "Fragile X messenger ribonucleoprotein 1, C-terminal low-complexity region (Fmr1, Mus musculus, UniProt P35922)", "technique": "RNA Bind-n-Seq", "form": "RNA", "sample": "in vitro", "tested at": "200 nM", "notes": "whole 134-nt RNA, ends assumed", "with": "150 mM LiCl", "baseline": "input library", "direction": "higher = stronger binding", "all molecules": "7-deaza-guanosine replaces G", "all sequences stand within": "GGGAGUUCUACAGUCCGACGAUC … UGGAAUUCUCGGGUGUCAAGG"}
{"Strand": "UCCUGUGCUACACAUCGUAUGUACCGAAUCGGGGUUUGGGGUUUGGGGAAAAAAAGGGGAAAGUAUUAUGUUACGCCGUUCGGAUCUGCA", "log2 enrichment": -1.22}
{"Strand": "AGUCCUGUGCUACACAUCGUAUGUACCGAAUCGGGGUGGGGAAAAAGGGGUUUGGGGAAAGUAUUAUGUUACGCCGUUCGGAUCUGCACU", "log2 enrichment": -1.35}
{"Strand": "UCAAGUCCUGUGCUACACAUCGUAUGUACCGAAUCGGGAAAGGGAAAGGGAGGGAAAGUAUUAUGUUACGCCGUUCGGAUCUGCACUUCC", "log2 enrichment": -0.543}
{"Strand": "UCAAGUCCUGUGCUACACAUCGUAUGUACCGAAUCGGUUUGGGUUUGGGGUUUGGAAAGUAUUAUGUUACGCCGUUCGGAUCUGCACUUC", "log2 enrichment": -1.56}
{"Strand": "CUGUGCUACACAUCGUAUGUACCGAAUCGGGUUUUUUUGGUUUUUUUGGGUUUUUUUGGGGAAAGUAUUAUGUUACGCCGUUCGGAUCUG", "log2 enrichment": 0.432}
{"Strand": "GUCCUGUGCUACACAUCGUAUGUACCGAAUCGGGGUUUUUGGGGUGGGGUUUUUGGGGAAAGUAUUAUGUUACGCCGUUCGGAUCUGCAC", "log2 enrichment": 0.0502}
{"Strand": "UCCUGUGCUACACAUCGUAUGUACCGAAUCGGGGAAAAAAAGGGGAAAAAGGGGUGGGGAAAGUAUUAUGUUACGCCGUUCGGAUCUGCA", "log2 enrichment": -0.706}
{"Strand": "UGGGAGGUGGAUUUAGUUUAUUUUUUUAGCUCAUUUCCAGGGGUGGGAAUUUUUUUUUAAUAUGUGUCAUGAAUAAAGUUGUUUUUGAAA", "log2 enrichment": -0.341}
{"data": "Series 2", "target": "RNA binding protein fox-1 homolog 2, RRM domain, GST-SBP tag (RBFOX2, Homo sapiens, UniProt O43251-10, residues 100-194)", "technique": "RNA Bind-n-Seq", "form": "RNA", "sample": "in vitro", "tested at": "365 nM", "notes": "natural RNA segment, single round, ends assumed", "baseline": "no-protein control", "direction": "higher = stronger binding", "all sequences stand within": "GGGAGUUCUACAGUCCGACGAUC … UGGAAUUCUCGGGUGCCAA", "Residues (chain)": "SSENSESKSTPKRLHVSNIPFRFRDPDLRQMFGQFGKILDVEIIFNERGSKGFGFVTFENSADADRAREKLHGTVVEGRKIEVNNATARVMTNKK"}
{"Strand": "GCCUGAAGCUAUUGCUGCUCGUCUACCAGGAGGAUGUGGAGAUCUUUAGACACGAAAUGCGUGCUAGGACUGGCAGCAGUUCCUGAGCCUGGCUGCCAGGCAACAGGAAG", "RBNS enrichment (R)": 0.83}
{"Strand": "AGACGGUGGGAUGGGAGAAGAGAAGAGUGCGCUGUCCGAGGGCUGACCGAAUGGCUGGGUUUAGUAAAUAAAACACUAAGCAUGACGGGCUCCCGCCUCUUGCCGCUCUG", "RBNS enrichment (R)": 1.04}
{"Strand": "UGUAGUAUCAACUGUGAACUGAAACCAGGUUGAUUUUAGUAACCACAUUCUUUGAUUUGACAUUGAUGUCAUCUUACAGGGCUGCGCUUGCUGGGCAUGCUUUUAAGUCU", "RBNS enrichment (R)": 3.16}
{"Strand": "UUACUUCAAUGAAAGCAUGUAACAAGUUUCUCAAACCACCAACAGCCAAGUGGAUUUGGUACAGUGCGGCUGUCUAAUAAAUAAUCAAAAGCAUUUGAUAGAAAUCUGUC", "RBNS enrichment (R)": 1.81}
{"Strand": "UCUCUCUUGCUGAAUGCACAUAUGUGCACACAUGUCAGCAUGUGCAUGCUCACUCCCCCACUUCUCACCUGCCAACAUCCUGGCCUCUGGCCGUGGCACUGGUGCCAGUA", "RBNS enrichment (R)": 8.84}
{"Strand": "UACUGAAGUAUGCCAUGAUGUUUGUUGUUUUCUUUCAUCGUAAGCCUGUAAGCAGGAAAAAUACGUCAAAUCAGAUAGAAUAGAGCAUUUACCAGUGGUCGAUGGCCUGG", "RBNS enrichment (R)": 0.649}
{"Strand": "UUUUGUGUGUGUGUGUGUGGGCAUCUCGCUGUAAUUGGUGCUGAAAAGUUAUUUGUGUUCAACUGACAUUUAACGCUCUCUCCCCAACUUCCUCCCGGCCCUGUGGGCCA", "RBNS enrichment (R)": 1.54}
{"Strand": "ACUUUUACUUUUUGCAUUGUCCAGACUUCUUUAUUAGAUGGAGAUGUUUCUUUUUCUGUCUUCUAGACUAAAUAGAGUAUCAUCCAAAUAAUGGGGCCUAUGACUUGAAU", "RBNS enrichment (R)": 0.346}
{"data": "Series 3", "target": "Sal-like protein 4, full length isoform B (SALL4, Homo sapiens, UniProt Q9UJQ4-2, residues 1-616)", "technique": "universal PBM", "form": "double-stranded DNA, one strand shown", "sample": "in vitro", "tested at": "not given", "notes": "8-mer, flanks averaged, mean of replicates", "direction": "higher = stronger binding"}
{"Strand": "AAGACAGC", "E-score": -0.145}
{"Strand": "TCATCCCA", "E-score": -0.00997}
{"Strand": "ACAAATCT", "E-score": 0.215}
{"Strand": "CAATTTAC", "E-score": 0.154}
{"Strand": "CGATTTAA", "E-score": 0.175}
{"Strand": "CTTTGGCC", "E-score": -0.0865}
{"Strand": "GGTAACAA", "E-score": 0.23}
{"Strand": "CCATGCGG", "E-score": -0.268}
{"Strand": "AGTCAAAT", "E-score": 0.254}
{"Strand": "CATCGGGG", "E-score": -0.141}
{"Strand": "GATACCTA", "E-score": 0.121}
{"Strand": "GTTGTTAA", "E-score": 0.216}
{"Strand": "CATTGTGC", "E-score": 0.11}
{"Strand": "ACTGTCCA", "E-score": 0.0115}
{"Strand": "GATTATAC", "E-score": 0.163}
{"Strand": "TGCGAAAA", "E-score": 0.205}
{"Strand": "AATAAGCT", "E-score": 0.204}
{"Strand": "CGAATCAG", "E-score": -0.119}
{"Strand": "CAACAACG", "E-score": 0.012}
{"Strand": "GACCACCC", "E-score": -0.335}
{"Strand": "CTTACGTA", "E-score": 0.27}
{"Strand": "GCTTTAGA", "E-score": 0.145}
{"data": "Series 4", "target": "RING finger protein unkempt homolog, zinc fingers 1-6, GST-SBP tag (UNK, Homo sapiens, UniProt Q9C0B0, residues 30-357)", "technique": "RNA Bind-n-Seq", "form": "RNA", "sample": "in vitro", "tested at": "not given", "notes": "RNA with constant flanks, human-mouse chimeric sites, ends assumed", "baseline": "input RNA pool", "direction": "higher = stronger binding", "all sequences stand within": "GGGAGUUCUACAGUCCGACGAUC … CAACAGAGGAUUGAGCAUCA", "Target sequence (chain)": "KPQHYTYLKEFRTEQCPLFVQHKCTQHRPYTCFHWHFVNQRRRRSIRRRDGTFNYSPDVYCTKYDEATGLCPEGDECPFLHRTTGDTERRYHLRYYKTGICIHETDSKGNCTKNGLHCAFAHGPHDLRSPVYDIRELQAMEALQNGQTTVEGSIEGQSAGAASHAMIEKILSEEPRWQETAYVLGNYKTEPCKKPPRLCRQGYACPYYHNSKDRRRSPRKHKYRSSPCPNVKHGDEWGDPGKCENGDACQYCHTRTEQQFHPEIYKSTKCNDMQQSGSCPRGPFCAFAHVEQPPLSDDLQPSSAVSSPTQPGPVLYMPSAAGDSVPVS"}
{"Strand": "CUGUGACCACAAGAUCCUGAAGUUUGAGCAGCUGAAGUUGACUCCCUCUCCUUGCCUGAACCCCCCCCCACUGCCCCCCCAUCCCCCAGUGUCGGCUGAGAUGUUGCCUCUGCACGGUUC", "bound/input enrichment": "2.04 ratio"}
{"Strand": "AUCCAGUACUCCAAUCACAAAGAACUAAAGACAGAUAAUACAUUAAACCAACGUGCUCAGGCAGUUCUUCAAGCUGUGACAGCUGUCCAGACAGCAAAUACACCUCUUAGUGGCACCACA", "bound/input enrichment": "0.465 ratio"}
{"Strand": "UUAUCCAAGACUCAACGAAAGACUCCAACGGUUAUUCAUAAACAUUAUCAAAUUCAUCGCAUUAGACAUUUUUACAUGAGAAAAGUCAAAUUUACUCAACAGAAUUACCAUGACAGACUG", "bound/input enrichment": "9.44 ratio"}
{"Strand": "CUGAAAAACACAGAUAUCAAAGUUGUUGAUUUUGGAAGUGCAACGUAUGAUGAUGAACAUCACAGUACUUUGGUGUCUACCCGGCACUACAGAGCUCCAGAGGUCAUUUUGGCUUUAGGU", "bound/input enrichment": "0.419 ratio"}
{"Strand": "AUGGAACAUUUCGAUGCGUCACUCAGUACCUAUUUCAAGGCCUUCCUGGGCCCCCGAGAUACAAGAGUCAAAGGAUGGUUCCUCCUGGACAAUUACAUACCCACAUUUGUCUGUUCUGUU", "bound/input enrichment": "0.0842 ratio"}
{"Strand": "GUGUCCUUUCAACUUAAUAAAUCACUGAGGCAUCUCUACUGUUCUGUUAAAAUCAGGACUGUAGCGCUGUGUCACCACAUGAGAGUUCAGAAGCAGCCUUUCUGUGGAGGGUGGGAAUGA", "bound/input enrichment": "0.204 ratio"}
{"Strand": "GGCCUGGGACCGUCCUGGGCUAGUACAAAUAGCGGCAGUGGAGGCUCGAGAGGAAAGUUUGUUAGUGGAGGCAGUGGAGAGGUCGUCCAUGUACGGUCCUUUACUCGAUAGAUGUGUUCU", "bound/input enrichment": "0.579 ratio"}
{"Strand": "UAUUUUUGACAGCCACACAAUCUUGGCAUGUAUUAAGGAAAAAAAAAAUCCCUGUUGAAGUAGUUUUUCCACCUAUCAGCACUGAGUAAAUGCCAUAACUCCGCGGAAAUGGUCUAAAUA", "bound/input enrichment": "0.292 ratio"}
{"note": "A few entries again (series 1):"}
{"Strand": "AGUCCUGUGCUACACAUCGUAUGUACCGAAUCGGGGUGGGGAAAAAGGGGUUUGGGGAAAGUAUUAUGUUACGCCGUUCGGAUCUGCACU", "log2 enrichment": -1.35}
{"Strand": "UCAAGUCCUGUGCUACACAUCGUAUGUACCGAAUCGGGAAAGGGAAAGGGAGGGAAAGUAUUAUGUUACGCCGUUCGGAUCUGCACUUCC", "log2 enrichment": -0.543}
{"Strand": "UCAAGUCCUGUGCUACACAUCGUAUGUACCGAAUCGGUUUGGGUUUGGGGUUUGGAAAGUAUUAUGUUACGCCGUUCGGAUCUGCACUUC", "log2 enrichment": -1.56}
{"Strand": "CUGUGCUACACAUCGUAUGUACCGAAUCGGGUUUUUUUGGUUUUUUUGGGUUUUUUUGGGGAAAGUAUUAUGUUACGCCGUUCGGAUCUG", "log2 enrichment": 0.432}
{"Strand": "GUCCUGUGCUACACAUCGUAUGUACCGAAUCGGGGUUUUUGGGGUGGGGUUUUUGGGGAAAGUAUUAUGUUACGCCGUUCGGAUCUGCAC", "log2 enrichment": 0.0502}
{"Strand": "UCCUGUGCUACACAUCGUAUGUACCGAAUCGGGGAAAAAAAGGGGAAAAAGGGGUGGGGAAAGUAUUAUGUUACGCCGUUCGGAUCUGCA", "log2 enrichment": -0.706}
